Experimental data of several laboratories.
Compare with care: the assays were run in different laboratories. ± marks the error that the study gave.
SLCO1B3: Solute carrier organic anion transporter family member 1B3 (SLCO1B3, Homo sapiens, UniProt Q9NPD5)
Sequence of UniProt Q9NPD5 (whole entry, looked up): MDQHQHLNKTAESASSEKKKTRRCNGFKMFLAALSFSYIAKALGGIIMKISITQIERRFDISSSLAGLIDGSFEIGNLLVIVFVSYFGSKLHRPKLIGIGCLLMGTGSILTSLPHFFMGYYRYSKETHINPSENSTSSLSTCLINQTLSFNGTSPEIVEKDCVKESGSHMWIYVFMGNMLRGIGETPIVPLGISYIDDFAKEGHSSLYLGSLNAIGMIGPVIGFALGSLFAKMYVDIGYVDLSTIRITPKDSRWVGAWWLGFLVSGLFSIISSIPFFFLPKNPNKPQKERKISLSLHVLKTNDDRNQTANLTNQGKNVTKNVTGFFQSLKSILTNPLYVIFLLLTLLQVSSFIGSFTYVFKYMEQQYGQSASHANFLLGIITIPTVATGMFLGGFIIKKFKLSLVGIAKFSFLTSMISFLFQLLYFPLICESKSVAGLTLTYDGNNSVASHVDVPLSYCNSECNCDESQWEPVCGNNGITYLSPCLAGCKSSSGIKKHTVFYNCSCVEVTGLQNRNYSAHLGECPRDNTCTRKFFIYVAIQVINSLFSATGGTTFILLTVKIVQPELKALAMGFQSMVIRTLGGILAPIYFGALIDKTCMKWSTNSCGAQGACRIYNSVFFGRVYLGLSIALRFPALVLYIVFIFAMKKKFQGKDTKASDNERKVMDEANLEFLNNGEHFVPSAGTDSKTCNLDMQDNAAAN
Sequence of UniProt Q9UNQ0 (whole entry, looked up): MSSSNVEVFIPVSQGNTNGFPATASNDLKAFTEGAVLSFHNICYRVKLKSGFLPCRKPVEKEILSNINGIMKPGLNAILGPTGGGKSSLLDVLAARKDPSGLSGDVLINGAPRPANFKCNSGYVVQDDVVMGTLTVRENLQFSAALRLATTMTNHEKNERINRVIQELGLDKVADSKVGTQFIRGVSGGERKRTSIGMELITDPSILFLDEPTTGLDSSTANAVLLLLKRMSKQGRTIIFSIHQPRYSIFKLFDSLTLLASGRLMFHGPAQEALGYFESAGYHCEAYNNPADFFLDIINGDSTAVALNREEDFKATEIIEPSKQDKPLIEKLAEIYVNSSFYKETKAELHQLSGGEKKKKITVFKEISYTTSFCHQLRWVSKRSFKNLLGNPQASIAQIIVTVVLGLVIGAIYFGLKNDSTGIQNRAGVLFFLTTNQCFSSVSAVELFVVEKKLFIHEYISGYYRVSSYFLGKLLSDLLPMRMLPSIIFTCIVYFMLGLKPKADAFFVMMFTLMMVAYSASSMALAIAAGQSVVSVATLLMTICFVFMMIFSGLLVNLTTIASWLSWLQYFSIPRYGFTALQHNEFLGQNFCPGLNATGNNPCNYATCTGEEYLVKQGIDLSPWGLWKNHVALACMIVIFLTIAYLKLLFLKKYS
Sequence of UniProt Q86VL8 (whole entry, looked up): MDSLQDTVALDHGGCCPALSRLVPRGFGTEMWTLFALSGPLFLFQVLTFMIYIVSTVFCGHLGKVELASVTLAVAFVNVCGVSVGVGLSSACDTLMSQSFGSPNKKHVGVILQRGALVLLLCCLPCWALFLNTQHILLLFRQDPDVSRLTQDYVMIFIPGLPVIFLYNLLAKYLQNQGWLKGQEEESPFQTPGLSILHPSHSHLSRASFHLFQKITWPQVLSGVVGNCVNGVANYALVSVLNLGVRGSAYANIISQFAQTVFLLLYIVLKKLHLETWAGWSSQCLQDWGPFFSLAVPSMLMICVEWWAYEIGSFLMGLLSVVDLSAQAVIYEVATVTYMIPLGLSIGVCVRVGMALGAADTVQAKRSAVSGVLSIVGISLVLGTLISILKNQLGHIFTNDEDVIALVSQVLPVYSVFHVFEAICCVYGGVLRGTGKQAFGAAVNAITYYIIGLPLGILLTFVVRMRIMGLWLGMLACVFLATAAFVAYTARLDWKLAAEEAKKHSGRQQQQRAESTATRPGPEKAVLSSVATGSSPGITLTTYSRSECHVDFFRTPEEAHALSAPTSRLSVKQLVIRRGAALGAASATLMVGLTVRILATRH

| SMILES | target or system | assay | system | conditions | how to read | measurement | result |
| --- | --- | --- | --- | --- | --- | --- | --- |
| CCS(=O)(=O)N1CC(CC#N)(n2cc(-c3ncnc4[nH]ccc34)cn2)C1 | Broad substrate specificity ATP-binding cassette transporter ABCG2 (ABCG2, Homo sapiens, UniProt Q9UNQ0) | transport, inhibitor |  | 50 µM, 5 (unit not given), pH 7, added: CCK-8 |  | inhibition | 31.8% |
| CCN(CC)Cc1cc(Nc2ccnc3cc(Cl)ccc23)ccc1O | Vero-E6 | CellTiter-Glo ATP |  | concentration not given, 72 h, second round 5-point | relative to: DMSO 0%, hyamine -100%, more negative, more toxic | cytotoxicity efficacy | -10.8% |
| C[C@H]1CN(N=O)CCc2ccc(Cl)cc21 | TK6 |  |  | 10 µM, 4 h, added: hamster liver S9 | relative to: vehicle | relative survival | 81.4% |
| CCCCN(CCCC)CCCNC(=O)c1ccc2nc(N3CCCCC3)sc2c1 | Vero-E6 | CellTiter-Glo ATP |  | 72 h, second round 5-point | relative to: DMSO 0%, hyamine -100%, more negative, more toxic | maximum response | -4.82% |
| CC(C)C[C@@H](NC(=O)[C@H](N)CCCCN)C(=O)N1CCC[C@@H]1C(=O)N[C@H](Cc1ccccc1)C(=O)N[C@H](Cc1ccccc1)C(N)=O | NGF-differentiated PC-12 neurons |  |  | 40 µM, 24 h | relative to: untreated | viability | 100% |
| Cc1ccc(-c2cccc(CN3CCCC(c4nc5ccc(C)cc5c(=O)[nH]4)C3)c2)c(C)c1 (centres unmarked) | Vero-E6 | CellTiter-Glo ATP |  | 72 h, retest 8-point duplicates | relative to: DMSO 0%, hyamine -100%, more negative, more toxic | maximum response | -4.12% |
| Fc1ccc(C2=CCNCC2)cc1 | Salmonella typhimurium | SOS/umu test | TA1535/pSK1002 | 0.031 mg/mL, 4 h, with S9, full range |  | survival | 88.3% |
| O=C1c2c(O)c(=O)ccn2N([C@@H]2c3ccccc3SCc3c2ccc(F)c3F)[C@@H]2COCCN12 |  |  | BALB/c mouse | subcutaneous, 1 mg/kg q24h |  | trough concentration | 0.751 ng/mL |
| Cc1ncccc1-c1nc2cc(C(=O)NCCCc3ccccc3)ccc2o1 | Vero-E6 | CellTiter-Glo ATP |  | concentration not given, 72 h, second round 5-point | relative to: DMSO 0%, hyamine -100%, more negative, more toxic | cytotoxicity efficacy | 0% |
| CCC(CC)COC(=O)[C@H](C)N[P@](=O)(OC[C@H]1O[C@@](C#N)(c2ccc3c(N)ncnn23)[C@H](O)[C@@H]1O)Oc1ccccc1 |  |  | human | intravenous, 100 mg |  | participants with adverse events | 22.2% |
| O=c1ccc2ccccc2o1 | NHEK | cell count |  | concentration not given, 6 h, XBP1 panel |  | chance response | 0% |
| CC(=O)N1CCC(C(=O)N2CCN3C(=O)c4cc(-c5ccccc5)ccc4NC(=O)C3C2)CC1 (centres unmarked) | Salmonella typhimurium |  | TA1537 | 50 µg/plate, added: rat liver S9 |  | revertants per plate | 16.5 |
| CCCC(C(=O)c1ccc(O)c(OC)c1)N1CCCC1 (centres unmarked) |  | LC-MS/MS | rat, trunk blood plasma | subcutaneous, 2 mg/kg MDPV, 240 min |  | plasma concentration | 86.6 ± 9.3 ng/mL |
| COc1cc2c(c(OC)c1OC)-c1ccc(OC)c(=O)cc1[C@@H](NC(C)=O)CC2 | Multidrug and toxin extrusion protein 2 (SLC47A2, Homo sapiens, UniProt Q86VL8) | transport, inhibitor | transiently transfected cells | 100 µM, 10 (unit not given), added: thiamine |  | inhibition | -1.42e-14% |
| COc1cc2c(Oc3ccc4[nH]c(C)cc4c3F)ccnc2cc1OCC1(N)CC1 |  |  | paediatric refractory sarcoma patients | 8 mg |  | Tinnitus incidence | 0% |
| CCCC(C(=O)c1ccc2c(c1)OCO2)N1CCCC1.Cl (racemic) |  | LC-MS/MS | rat, trunk blood plasma | subcutaneous, 2 mg/kg, 40 min |  | plasma concentration | 318 ± 24.4 ng/mL |
| CC(=O)c1c(C)c2cnc(Nc3ccc(C4CCN(CCS(C)(=O)=O)CC4)cn3)nc2n(C2CCCC2)c1=O |  |  | human, plasma | oral, 25 mg once daily, day 21, multiple doses |  | CL | 1390 mL/min |
| CC(Nc1nc(N2CCNCC2C)nc2ccccc12)c1ccccc1 (centres unmarked) | Vero-E6 | CellTiter-Glo ATP |  | concentration not given, 72 h, retest 8-point duplicates | relative to: DMSO 0%, hyamine -100%, more negative, more toxic | cytotoxicity efficacy | 0% |

| SMILES | target or system | assay | system | conditions | how to read | measurement | result |
| --- | --- | --- | --- | --- | --- | --- | --- |
| CC(C)C[C@@H](N)C(=O)N[C@H](CC(C)C)C(=O)N[C@H](Cc1ccccc1)C(=O)N[C@H](Cc1ccccc1)C(=O)N[C@H](C)C(N)=O | NGF-differentiated PC-12 neurons |  |  | 20 µM, 24 h | relative to: untreated | viability | 86% |
| CCCC(C(=O)c1ccc(O)c(O)c1)N1CCCC1 (centres unmarked) |  |  | rat | subcutaneous, 1 mg/kg MDPV, 40 min |  | brain-to-plasma ratio | 0.3 ± 0.2 |
| CC(C)C[C@@H](N)C(=O)N[C@H](CC(C)C)C(=O)N[C@H](Cc1ccccc1)C(=O)N[C@H](Cc1ccccc1)C(N)=O | NGF-differentiated PC-12 neurons |  |  | 40 µM, 24 h | relative to: untreated | viability | 53% |
| O=c1cc(-c2cccc3c2Sc2ccccc2S3)oc(N2CCOCC2)c1 | human coronavirus OC43 | virus-induced cell killing | MRC-5 | maximum over 10 doses |  | maximum inhibition | 0% |
| CN/C(=N\[N+](=O)[O-])NCc1cnc(Cl)s1 |  |  | soil | 0 days, nominal 0.37 |  | recovery | 65% |
| CO[C@H]1C[C@@H]2CC[C@@H](C)[C@@](O)(O2)C(=O)C(=O)N2CCCC[C@H]2C(=O)O[C@H]([C@H](C)C[C@@H]2CC[C@@H](OC(=O)NCCOCCOCCOCCOCCOCCOCCOCCOCCC(=O)N3CCc4cc(Cn5nc(-c6ccc7oc(N)nc7c6)c6c(N)ncnc65)ccc4C3)[C@H](OC)C2)C[C@@H](O)[C@H](C)/C=C(\C)[C@@H](O)[C@@H](OC)C(=O)[C@H](C)C[C@H](C)/C=C/C=C/C=C/1C |  |  | patients with advanced solid tumours | intravenous, 6 mg weekly, grade 3 or higher |  | maculopapular rash incidence | 8.3% |
| CN1CC[C@@H](c2c(O)cc(O)c3c(=O)cc(-c4ccc(C(F)(F)F)cc4Cl)oc23)[C@@H]1CO |  | refers to: grade 3 urinary incontinence | relapsed or refractory haematologic malignancy patients | oral, dose not given, phase dose escalation, all doses |  | patients with adverse event | 5% |
| COc1ccc2c(Sc3ccccc3)c(C(=O)NCCCN3CCCCC3)[nH]c2c1 | Vero-E6 | CellTiter-Glo ATP |  | 72 h, second round 5-point | relative to: DMSO 0%, hyamine -100%, more negative, more toxic | maximum response | -14.3% |
| O=C1CCC(N2C(=O)c3ccccc3C2=O)C(=O)N1 (centres unmarked) | SLCO1B3 | transport, inhibitor | transiently transfected cells | 100 µM, 10 (unit not given), added: CCK-8 |  | inhibition | -63.5% |
| CC(C)(Nc1nc(N2CCNCC2)nc2ccccc12)c1ccccc1 | Vero-E6 | CellTiter-Glo ATP |  | concentration not given, 72 h, retest 8-point duplicates | relative to: DMSO 0%, hyamine -100%, more negative, more toxic | cytotoxicity efficacy | 0% |
| CC1(C)[C@H](C(=O)OCc2cccc(Oc3ccccc3)c2)[C@@H]1C=C(Cl)Cl | CES2 human cytosolic |  |  | 0.1 µM, age 1 year |  | enzyme contribution | 5.73% |
| C[C@]1(CO)Cc2ncn(-c3ccc(C#N)c(Cl)c3)c2C(=O)O1 |  |  | healthy humans | 10 mg, fasted |  | drug-related Hyperhidrosis incidence | 0% |
| CC(C)n1c(/C=C/C(O)CC(O)CC(=O)O)c(-c2ccc(F)cc2)c2ccccc21 (centres unmarked) | human coronavirus OC43 | virus-induced cell killing | MRC-5 | maximum over 10 doses |  | maximum inhibition | 0% |
| CCCCSCCCNC(=O)C1CCN(Cc2nc(-c3ccc(CC)cc3)oc2C)CC1 | Vero-E6 | CellTiter-Glo ATP |  | 72 h, second round 5-point | relative to: DMSO 0%, hyamine -100%, more negative, more toxic | maximum response | -5.22% |
| [Cl-].[Cl-].[Pt+2].[Ru+2].c1ccc(-c2nc3ccccc3nc2-c2ccccn2)nc1.c1cnc2c(c1)ccc1cccnc12.c1cnc2c(c1)ccc1cccnc12 | Danio rerio |  | embryos | 75 µM, 48 h |  | hatching rate | 3.33 ± 3.7% |
| CCN(CC)C(=O)[C@@H]1C=C2c3cccc4[nH]cc(c34)C[C@H]2N(C)C1 |  | refers to: hypersensitivity to cold | healthy volunteers | dose not given, 12 to 24 h | relative to: placebo, direction not given | List of Complaints score | -1 |
| NC(=O)c1ncn([C@@H]2O[C@H](CO)[C@@H](O)[C@H]2O)n1 | SLCO1B3 | transport, inhibitor | transiently transfected cells | 100 µM, 10 (unit not given), added: CCK-8 |  | inhibition | 53.2% |
